# Measured values collected from several papers.
# Each numbered part is a random draw from the data of one study; scales do not carry over between parts.

# Set 1
# Target: Histone acetyltransferase KAT6A, both winged helices, GST fusion (KAT6A, Homo sapiens, UniProt Q92794, residues 1-181)
# Method: protein binding microarray
# Molecule type: double-stranded DNA, one strand shown
# Matrix: in vitro
# Tested at: not given
# Notes: 8-mer, flanks averaged, mean of 2 arrays, mostly near background
# Reference: not given
# Direction: higher = stronger binding
# Construct (chain): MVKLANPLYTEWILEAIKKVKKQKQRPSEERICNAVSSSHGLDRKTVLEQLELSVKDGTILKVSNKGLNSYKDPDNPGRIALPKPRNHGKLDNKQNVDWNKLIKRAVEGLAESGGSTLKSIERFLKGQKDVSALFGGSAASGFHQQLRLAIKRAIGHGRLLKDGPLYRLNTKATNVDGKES
Strand,E-score
ACTCGAGG,-0.0773
CTCCGTAC,0.206
GCTAACTA,0.019
CGTAGGCC,0.0323
AAACCCTT,0.0087
GGGTAAAA,-0.0285
GCACGTGA,-0.0692
CCTGCCCA,-0.198
TGTGATAA,-0.0628
CGCGGCTA,0.383
AGGGCCCG,0.201
CACCGCAG,-0.0079
GAGGACAC,-0.0183
AAGATTTG,0.00238
ACACACGA,-0.0553
CTCAGCAG,-0.215
ACTAAGAG,-0.118
CAAAGATG,-0.103
GGCGATAA,-0.036
ACCTCAAG,-0.23
ACCGAACA,-0.00653
GGAACGGA,0.196
ATGGGATG,-0.215
CGTGTGAG,-0.0129
GGGAGAGA,-0.235

# Set 2
# Target: Prothrombin, mature alpha-thrombin (F2, Homo sapiens, UniProt P00734)
# Method: aptamer microarray, sandwich
# Molecule type: DNA with 2'F-ANA
# Matrix: in vitro
# Tested at: 200 nM
# Notes: whole 15-mer aptamer, many near background
# With: Cy3 exosite-II aptamer, 400 nM
# Direction: higher = stronger binding
# Strand: GGTTGGTGTGGTTGG
Modification,mean fluorescence intensity [a.u.]
2'F-ANA at 1 3 6 9 10 13,126
2'F-ANA at 2 4 7 9 10 11 12 13 14 15,65
2'F-ANA at 2 6 7 12 13 15,543
2'F-ANA at 1 9 12 13,295
2'F-ANA at 1 4 5,60.6
2'F-ANA at 3 4 6 8 9 10 11 12 13 14,142
2'F-ANA at 6 9 10 12 13 14,167
2'F-ANA at 10,222
2'F-ANA at 1 5 9 10 11 13 14,52.9
2'F-ANA at 1 4 7 9 12 13 14,52.8
2'F-ANA at 2 3 6 7 12 15,1030
2'F-ANA at 1 2 6 7 9 10 11 12 14 15,50.3
2'F-ANA at 1 5 7 8 13 14,44.3
2'F-ANA at 4 5 6 9 10 11 13 14 15,47.7
2'F-ANA at 2 4 5 9 11 13,51.7
2'F-ANA at 2 3 4 5 6 8 14,53.8
2'F-ANA at 4 7 8 9 11 13,221

# Set 3
# Target: TAR DNA-binding protein 43, full length, His tag (TARDBP, Homo sapiens, UniProt Q13148, residues 1-414)
# Method: RNA Bind-n-Seq
# Molecule type: RNA
# Matrix: in vitro
# Tested at: 20 nM
# Notes: 6-mer, flanks averaged, single round
# With: 150 mM LiCl
# Reference: input library
# Direction: higher = stronger binding
Strand,6-mer enrichment (R)
CGUGUC,0.979
AUUGGA,0.971
GACCCG,0.954
GUGGGU,1.54
ACGGAU,0.872
UUAGCC,0.969
AUGGUC,0.916
UCCAGG,0.935
CCCGGC,0.974
AUUUGA,0.978
GUGUUC,1.15
GUAUGU,1.81
AAGCCU,0.867
GUCACA,0.864
UAAAAG,0.893
UAGAUU,0.882
ACCCUU,1.08
GUCUUG,1.07
GGACUA,0.993
GCCAUG,0.947
AUCGCA,0.85

# Set 4
# Target: Sal-like protein 4, full length isoform B (SALL4, Homo sapiens, UniProt Q9UJQ4-2, residues 1-616)
# Method: universal PBM
# Molecule type: double-stranded DNA, one strand shown
# Matrix: in vitro
# Tested at: not given
# Notes: 8-mer, flanks averaged, mean of replicates
# Direction: higher = stronger binding
Strand,E-score
GTCCATCA,0.0055
CCGCTAGC,-0.277
GCGGGTAC,-0.149
ATAAGGCA,0.168
GGGGCAAC,-0.216
ACTTCAGC,-0.115
AGTCGTAA,0.111
GGGTCGTA,-0.17
ATTTTTTA,0.401
CTGGGTCC,-0.237
AGTTAGCC,-0.169
AGCCGGCA,-0.277
CACACGGG,-0.288
AACTCTAG,0.0604
ATGTACAC,0.216
GAGCGGAA,-0.0523

# Set 5
# Target: RNA binding protein fox-1 homolog 2, RRM domain, GST-SBP tag (RBFOX2, Homo sapiens, UniProt O43251-10, residues 100-194)
# Method: RNA Bind-n-Seq
# Molecule type: RNA
# Matrix: in vitro
# Tested at: 365 nM
# Notes: natural RNA segment, single round, ends assumed
# Reference: no-protein control
# Direction: higher = stronger binding
# Constant ends, left off below: GGGAGUUCUACAGUCCGACGAUC … UGGAAUUCUCGGGUGCCAA
Strand,RBNS enrichment (R)
AGCAGCCAGAGCAGUUAGCCAGUUAGUCCCCAGGCCUGUGGCCACAGGCGUUUCUGACCUGCUGGGCCGAGAAUGGGUAAGUUGUCUGGAGUCAGGUGGGCCCACGUAGG,0.75
CGUUUAGUCACCUUGGAGCCCACUCACCUGGUCCUGUUGUUUUACCCCAUCCCUUCUCUCGCGCGCCUAUUGAUUUGUUUCUGAGGAGAGUACACCGUUCACUAUUGUAG,0.786
CAAUGUGUCAAAUAACGUAUUGAAUAUUUAUGAAAAGAGAGACUAUAUUUAUAUUCUUAGAUAGUUUGUUCCACAAUUUUUCAUUUCAUGCUUCCAUAUAUAUUACCCUG,0.405
UCAUCUCCUGGGGCCAGGACCUCCCUGCCCAGGCUUCAGCCUGACUCCAGUCCUUCCUUGAGUGUAUCCUGUGGCCUACAUGUGUCUUCAUCCUUCCCUAAUGCCGUCUU,0.81
GACAGACUUUGGUUGCUGUAUUCAAGUAUUUGGAUUAUGACUGUGGAGGAGGGCUUGCUUAAGAUAUGUGGUUGUGUUUUUUUGUGGAAAAGUAAGGAGUUAGGUGGCUU,4.09
CAUUAAAUCCAUUAGUAUUACAUUGCUUUCAAAGAGAAGGUGGGUGGAACUAUAAUUCAGCAUCUUUUACUGCAUUUAAAGAUGGGAGCAAACUUUUGUAUGGUUGGGAG,0.93
UGUGUUUUUAGAUGGCACAUUGGUCCAUUUGUACACACCUGUCAUCGGGAUCUUAGUACAUGGACUUAAAAGGCAACACUACAUCAAUGGUUUGUAUAUGUGGUGAAUUC,0.406
AAAAAGGAGAACUGAAAAUUUAGACAUACAGUUGGCCAUUGUAAAAAACAUCAGUUUCCUCUCAUACAUUCCAAGUAAACCAAGUAAAAUAAGUGUUGGAGUAACACUUG,0.563

# Some of these lines once more (set 2):
Modification,mean fluorescence intensity [a.u.]
2'F-ANA at 1 3 6 9 10 13,126
2'F-ANA at 2 4 7 9 10 11 12 13 14 15,65
2'F-ANA at 2 6 7 12 13 15,543
2'F-ANA at 1 9 12 13,295
2'F-ANA at 1 4 5,60.6
2'F-ANA at 3 4 6 8 9 10 11 12 13 14,142
2'F-ANA at 6 9 10 12 13 14,167
2'F-ANA at 10,222
